Assay results gathered from unrelated publications.
Protocols differ between the studies behind these lines. “And” joins repeats or separate records; there may be more than shown.
Target: cAMP-dependent protein kinase catalytic subunit alpha (PRKACA, Homo sapiens, UniProt P17612)

CCOC(=O)[C@@H]1Cc2c(cc([N+](=O)[O-])cc2[N+](=O)[O-])[C@H](O)[C@]12C(=O)Nc1ccc(Br)cc12 — remaining binding (binding, competition with immobilised ligand; 0.1 µM): 100%
CS(C)(=O)=Nc1ccc(-c2ccc(-c3nc4cc(O[C@@H]5CO[C@H]6[C@@H]5OC[C@H]6O)[nH]c4cc3F)cc2)cc1 — inhibition (enzyme activity, inhibitor; 10 µM): -9%
O=C1NC(=O)c2c1c1cc(F)c[n+]3c1c1c2c2cc(O)ccc2[n]1[Ru-4]312([N]=C=S)[S+]3CC[S+]1CC[S+]2CC3 (stereo not shown) — remaining activity (enzyme activity; 100 nM, human enzyme, together with: 10 µM ATP; relative to: untreated): 13%
[CH3][Ti+2][O]C(=O)c1ccc([S][Au][PH](c2ccccc2)(c2ccccc2)c2ccccc2)cc1.c1cc[cH-]c1.c1cc[cH-]c1 — remaining activity (kinase activity, HotSpot kinase; 1 µM, together with: ATP 10 µM): 93.4% and 92.5%
N[C@H](C(=O)N1CCCC1)C1CCN(c2nccc3c(-c4ncc(Cl)cc4Cl)cccc23)CC1 — inhibition (kinase activity, inhibitor; 10 µM, together with: ATP 1 mM): 7.1%
O=C(O)c1ccccc1/C=N/Nc1nc(-c2ccccc2Cl)cs1 — inhibition (enzyme activity, inhibitor; 1 µM): -0.94%
C[C@H](NCc1ccc(-c2ccc(C(F)(F)F)cc2)cc1)C(N)=O — inhibition (cell-free assay, competition with immobilised ligand; 1 µM): 21%
O=C(N[C@@H]1c2ccccc2C[C@H]1N1CCCC1)c1ccc(-c2ccnc3[nH]ccc23)nc1 — remaining binding (binding, competition with immobilised ligand; 3 µM): 0.4%
Nc1ccc(/C=C/C(=O)N2CCc3c(oc4c(-c5ccc(F)cc5)cc(-c5ccc(C(=O)N6CCC(F)(F)CC6)cn5)cc34)C2)cn1 — remaining binding (binding, competition with immobilised ligand; 1 µM): 100%
CC(C)[C@H]1NC(=O)C[C@H]2/C=C/CCSSC[C@@H](NC1=O)C(=O)N[C@H](Cc1cccc3ccccc13)C(=O)NCC(=O)O2 — inhibition (enzyme activity, inhibitor; 10 µM): -3.3%

Repeated from above:
C[C@H](NCc1ccc(-c2ccc(C(F)(F)F)cc2)cc1)C(N)=O — inhibition (cell-free assay, competition with immobilised ligand; 1 µM): 21%
